Measured values from different studies.
A part holds a random share of what one study measured.

Sample 1
Target: Sal-like protein 4, full length isoform A (SALL4, Homo sapiens, UniProt Q9UJQ4, residues 1-1053)
Chain of UniProt Q9UJQ4 (whole entry, looked up): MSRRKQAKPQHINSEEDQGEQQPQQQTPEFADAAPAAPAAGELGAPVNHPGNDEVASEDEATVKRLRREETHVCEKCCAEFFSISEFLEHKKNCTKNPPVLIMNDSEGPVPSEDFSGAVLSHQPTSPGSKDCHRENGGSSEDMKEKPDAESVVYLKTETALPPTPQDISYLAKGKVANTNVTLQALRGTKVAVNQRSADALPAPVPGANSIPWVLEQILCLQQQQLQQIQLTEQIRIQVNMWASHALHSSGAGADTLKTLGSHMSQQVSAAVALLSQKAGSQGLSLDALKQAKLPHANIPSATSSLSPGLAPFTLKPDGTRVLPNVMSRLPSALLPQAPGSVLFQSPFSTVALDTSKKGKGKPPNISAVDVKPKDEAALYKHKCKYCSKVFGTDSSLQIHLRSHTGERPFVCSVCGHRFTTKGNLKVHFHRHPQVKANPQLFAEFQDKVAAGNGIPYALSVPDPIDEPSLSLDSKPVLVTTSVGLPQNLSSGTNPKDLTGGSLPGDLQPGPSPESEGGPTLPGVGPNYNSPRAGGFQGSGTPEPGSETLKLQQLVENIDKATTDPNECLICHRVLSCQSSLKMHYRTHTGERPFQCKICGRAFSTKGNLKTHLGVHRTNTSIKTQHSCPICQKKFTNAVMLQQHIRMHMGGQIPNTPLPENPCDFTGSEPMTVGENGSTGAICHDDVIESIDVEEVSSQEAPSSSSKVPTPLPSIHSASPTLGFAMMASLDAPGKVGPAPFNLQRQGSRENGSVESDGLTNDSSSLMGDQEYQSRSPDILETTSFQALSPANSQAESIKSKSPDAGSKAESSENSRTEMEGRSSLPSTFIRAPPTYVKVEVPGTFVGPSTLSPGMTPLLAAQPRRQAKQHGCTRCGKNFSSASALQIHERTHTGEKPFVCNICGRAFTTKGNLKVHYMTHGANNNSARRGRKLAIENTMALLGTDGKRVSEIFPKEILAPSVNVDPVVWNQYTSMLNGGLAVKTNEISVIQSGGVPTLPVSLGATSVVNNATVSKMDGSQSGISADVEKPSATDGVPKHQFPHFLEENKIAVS
Method: universal PBM
Molecule type: double-stranded DNA, one strand shown
Sample: in vitro
Tested at: 600 nM
Notes: 8-mer, flanks averaged, mean of replicates
Direction: higher = stronger binding
| Strand | E-score |
| --- | --- |
| GGGGCTAA | -0.22 |
| ATCGGTTC | -0.185 |
| AGGAGATC | -0.0805 |
| CATCGATC | -0.0625 |
| AATCTGAG | -0.0598 |
| CAAAGCAA | 0.137 |
| CAAGCCGA | -0.138 |
| ACGGTTTC | -0.237 |
| CGCTGGCA | -0.212 |
| CGAACGAC | -0.118 |
| CTGAAGTC | 0.00462 |
| CCAAATCA | 0.0524 |
| CCCCGAAC | -0.275 |
| AGCGCTGG | -0.189 |
| CTCCAAAA | 0.108 |
| CAACCGGA | -0.166 |
| AATACTCC | 0.0773 |
| AACCCATT | 0.124 |
| GACTCAGA | -0.122 |
| AACATGAT | 0.309 |
| GAAAACGC | -0.0625 |
| GAGTGCAA | 0.00734 |
| ATGCCTTG | -0.0638 |
| ACCAACAG | -0.231 |
| TCGGCGCA | -0.218 |

Sample 2
Target: RNA binding protein fox-1 homolog 2, RRM domain, GST-SBP tag (RBFOX2, Homo sapiens, UniProt O43251-10, residues 100-194)
Method: RNA Bind-n-Seq
Molecule type: RNA
Sample: in vitro
Tested at: 365 nM
Notes: natural RNA segment, single round, ends assumed
Reference: no-protein control
Direction: higher = stronger binding
Constant ends, left off below: GGGAGUUCUACAGUCCGACGAUC … UGGAAUUCUCGGGUGCCAA
Target sequence (chain): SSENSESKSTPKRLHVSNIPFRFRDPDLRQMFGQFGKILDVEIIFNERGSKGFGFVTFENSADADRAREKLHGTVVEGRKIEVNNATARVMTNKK
| Strand | RBNS enrichment (R) |
| --- | --- |
| CUAGCUUCCUGUGGGUCAGGAGUGCAGAGCCACAGCCCACCCUGAACUGUCUGUGCCAGUGAGCGCCAAGGAGAAGGAAAACCUGCCUUAGCCCGAGGGUAGAAGUUGAU | 0.503 |
| UUUUUAGAUGGUAUGCUCUUGAUUGAAAUAUAUUCUCACUUUUACCAGGUUAAACAUUUGGAAUCUUAUAAUGUUACUUGCUUUUUGAUAGAUAAUAGUGAAAUAAAUUC | 0.514 |
| GGGAGAGGCUGAGGACUUAAAAUAUUCCUGCAUUUGUGAAAUGAUGGUGAAAGCACUGCUGCCCAGCCUCCAAGCUCCAUCUCCACUCCAGAUUUUUUACAGCUGCCUGC | 0.668 |
| GUUGGCUCAUCAAACCUGGCAACCCUGUGGCCUGUCUGCCGGAGCUGACUGGAUCCACUCAUCAAUUCUUCGUCCCCACUACUAAGACUGGGCAUGUUUUGCUGGUGUGG | 0.3 |
| AGGGGUACGCUUAGGUGGGCAGUCCUGUGGGGAAAACAUCUUGUCUCCAUCUUGCUAGGAAGAACCAACCCACAAAACAACGCCAUCACUGGAAUCUCCCAUCGCUUUAG | 0.397 |
| UAAAACAAGUGAAUAGAUCCAAGUGAAUAAAGUAAUUUCUCCAUUGACUUUUUUUUUUAACUGCUAGUCAUGUGGCUGUAACUAUGGGUUGCUCUUUAUUAUUCCCUGAU | 0.768 |
| CUGCAGCUUUAGUUACUGAUCUAGAAGCCCUGUAGUGUGAAGCGGCCGCUGCAGGCCAUUGUACACAAACUGGUUGUAUGUAUCAGACUGCAGAUGGGAGGAGCAGUGGU | 0.457 |
| GCAGCCAUUCCUUGCUUCAGUUCCCUUCCACCACCCAGGGCUGGCUUUCCUAUAAGCCACCUCCAGGGUCCAGGGGCUUUCUCUCUCUCUCCGAAGCCCCUGGACCUGUU | 0.579 |
| UGUGUGCCCACCCCUGACAUCUGUCCAUGUUGUCUAGACUCCACCUGUCCACGGUUCCUUUGUUCUAGGCUGUGAACCCGUCCUUGUCUCUUCCCCCACUGUGUGUUUAA | 0.502 |
| CACGAAAUUCCAGAAGAAAUGUGUGAUAAAAUCUGAAGUCAUGCUAGGCUUUUUUCUCUCUGCAACAUUUGUUCCUGGAAGAAAAGAGCAGAUGGAUUAUUUGUCGACCA | 0.384 |
| ACAGUUUUCAAAAAUAAAGAAAAGUAGGUCCUAAUGAUGUAUUGCUUCCCCGAAAUGGUAUCACACAGGUCAUCCAUGAAUCGCUGUAGUGGCUAGGGGUAUGUGGGACU | 0.634 |
| CAUAUCAAGAUGCGACCCAAGGGGCUAAGUGGGAACAGUGGUUAUGUGGACUCGUAAGAUUCACAGAGAAUGUGUGCUCUGUUGUGAUUCUCUUGUCAUAGUCCUGGUUU | 3.42 |

Sample 3
Target: Ras GTPase-activating protein-binding protein 1, full length (G3BP1, Homo sapiens, UniProt Q13283)
Chain of UniProt Q13283 (whole entry, looked up): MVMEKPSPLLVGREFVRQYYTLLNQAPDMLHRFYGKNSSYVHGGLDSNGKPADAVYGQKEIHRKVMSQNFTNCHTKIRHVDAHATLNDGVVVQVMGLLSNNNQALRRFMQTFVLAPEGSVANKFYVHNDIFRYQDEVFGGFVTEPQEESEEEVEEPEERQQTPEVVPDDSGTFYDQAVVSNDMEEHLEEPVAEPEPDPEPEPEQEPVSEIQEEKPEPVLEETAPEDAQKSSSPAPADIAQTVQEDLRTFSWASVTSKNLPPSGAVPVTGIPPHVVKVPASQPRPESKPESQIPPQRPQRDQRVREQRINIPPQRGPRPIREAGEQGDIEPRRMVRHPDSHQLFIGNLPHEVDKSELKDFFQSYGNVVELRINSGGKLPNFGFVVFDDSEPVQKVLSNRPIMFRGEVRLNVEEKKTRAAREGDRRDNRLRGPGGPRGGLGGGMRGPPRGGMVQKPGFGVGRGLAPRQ
Method: RNA Bind-n-Seq
Molecule type: RNA
Sample: in vitro
Tested at: 200 nM
Notes: whole 134-nt RNA, ends assumed
With: 150 mM LiCl
Reference: input library
Direction: higher = stronger binding
Library: 7-deaza-guanosine replaces G
Constant ends, left off below: GGGAGUUCUACAGUCCGACGAUC … UGGAAUUCUCGGGUGUCAAGG
| Strand | log2 enrichment |
| --- | --- |
| UCAAGUCCUGUGCUACACAUCGUAUGUACCGAAUCGGGAAAGGGUGGGUUUGGGAAAGUAUUAUGUUACGCCGUUCGGAUCUGCACUUCC | -0.458 |
| CAAGUCCUGUGCUACACAUCGUAUGUACCGAAUCGGAAAGGAAAAAAAGGAAAGGAAAGUAUUAUGUUACGCCGUUCGGAUCUGCACUUC | -0.602 |
| UAACUUUAGAGGAGGAUCUGAUGGAUAUGGCAGUGGACGUGGAUUUGGGGAUGGCUAUAGUGGGUAUGGAGGAGGACCUGGAGGUGGCAA | -0.0137 |
| CUGUGCUACACAUCGUAUGUACCGAAUCGGUUUUUUUGGGGUUUUUUUGGGGUUUUUUUGGGAAAGUAUUAUGUUACGCCGUUCGGAUCU | 1.47 |
| UUACACCAAUGAGAAGCUGCAGCAGCUCUUCAACCACACCAUGUUCAUCCUGGAGCAGGAGGAGUACCAGCGCGAGGGCAUCGAGUGGAA | 0.41 |
| CAAGUCCUGUGCUACACAUCGUAUGUACCGAAUCGGAAAGGGAAAGGGGAAAGGGAAAGUAUUAUGUUACGCCGUUCGGAUCUGCACUUC | -0.201 |
| CCUCAAGUCCUGUGCUACACAUCGUAUGUACCGAAUCGGAGGGGAGGAGGGGAAAGUAUUAUGUUACGCCGUUCGGAUCUGCACUUCCAG | 0.245 |
| AAGUCCUGUGCUACACAUCGUAUGUACCGAAUCGGAAAAAGGUUUUUGGAAAAAGGAAAGUAUUAUGUUACGCCGUUCGGAUCUGCACUU | -1.46 |
| CUGUGCUACACAUCGUAUGUACCGAAUCGGGCCCCCCCGGCCCCCCCGGGCCCCCCCGGGGAAAGUAUUAUGUUACGCCGUUCGGAUCUG | -0.0206 |
| UCCUGUGCUACACAUCGUAUGUACCGAAUCGGGGUUUUUUUGGGGAAAGGGGAAAGGGGAAAGUAUUAUGUUACGCCGUUCGGAUCUGCA | 0.431 |
| AAGUCCUGUGCUACACAUCGUAUGUACCGAAUCAAACCCCCAAAUUUAAAUUUAAAAAAGUAUUAUGUUACGCCGUUCGGAUCUGCACUU | 0.988 |

Sample 4
Target: Prothrombin, mature alpha-thrombin (F2, Homo sapiens, UniProt P00734)
Method: aptamer microarray, sandwich
Molecule type: DNA with 2'F-ANA
Sample: in vitro
Tested at: 200 nM
Notes: whole 15-mer aptamer, many near background
With: Cy3 exosite-II aptamer, 400 nM
Direction: higher = stronger binding
Strand: GGTTGGTGTGGTTGG
| Modification | mean fluorescence intensity |
| --- | --- |
| 2'F-ANA at 2 5 6 8 10 11 13 15 | 83.7 a.u. |
| 2'F-ANA at 1 2 4 5 6 7 8 12 13 14 | 46.9 a.u. |
| 2'F-ANA at 2 5 6 8 9 10 11 15 | 57 a.u. |
| 2'F-ANA at 1 2 3 4 5 8 9 10 11 12 13 15 | 50.1 a.u. |
| 2'F-ANA at 1 4 6 7 9 10 13 15 | 49.3 a.u. |
| 2'F-ANA at 2 3 4 11 13 15 | 449 a.u. |
| 2'F-ANA at 1 2 4 5 6 11 13 14 | 44.4 a.u. |
| 2'F-ANA at 1 3 4 5 9 15 | 59.5 a.u. |
| 2'F-ANA at 2 6 8 9 10 14 15 | 84.3 a.u. |
| 2'F-ANA at 1 2 4 5 10 | 42.8 a.u. |
| 2'F-ANA at 1 2 3 5 7 8 10 12 13 14 15 | 47.4 a.u. |
| 2'F-ANA at 3 4 5 6 7 9 13 15 | 55.3 a.u. |
| 2'F-ANA at 1 3 6 7 9 10 11 13 | 99.5 a.u. |
| 2'F-ANA at 1 2 7 8 10 11 12 14 | 48.4 a.u. |
| 2'F-ANA at 1 4 6 10 11 14 15 | 79.1 a.u. |
| 2'F-ANA at 6 8 10 12 13 | 176 a.u. |
| 2'F-ANA at 1 4 5 8 9 10 14 | 45.9 a.u. |
| 2'F-ANA at 2 5 6 10 12 14 | 49.5 a.u. |
| 2'F-ANA at 1 2 5 6 7 9 12 13 14 | 47.1 a.u. |
| 2'F-ANA at 1 2 6 9 12 14 | 58.6 a.u. |
| 2'F-ANA at 3 5 6 8 10 11 12 | 60.2 a.u. |
| 2'F-ANA at 7 8 14 15 | 224 a.u. |
| 2'F-ANA at 1 2 3 4 5 7 8 9 13 14 15 | 47.9 a.u. |
| 2'F-ANA at 1 2 3 6 8 9 11 12 13 14 15 | 76.7 a.u. |
| 2'F-ANA at 1 3 5 7 8 9 10 13 14 | 69.1 a.u. |

A few entries again (sample 4):
| Modification | mean fluorescence intensity |
| --- | --- |
| 2'F-ANA at 2 5 6 8 10 11 13 15 | 83.7 a.u. |
| 2'F-ANA at 1 2 4 5 6 7 8 12 13 14 | 46.9 a.u. |
| 2'F-ANA at 2 5 6 8 9 10 11 15 | 57 a.u. |
| 2'F-ANA at 1 2 3 4 5 8 9 10 11 12 13 15 | 50.1 a.u. |
| 2'F-ANA at 1 4 6 7 9 10 13 15 | 49.3 a.u. |
| 2'F-ANA at 2 3 4 11 13 15 | 449 a.u. |
| 2'F-ANA at 1 2 4 5 6 11 13 14 | 44.4 a.u. |
| 2'F-ANA at 1 3 4 5 9 15 | 59.5 a.u. |
| 2'F-ANA at 2 6 8 9 10 14 15 | 84.3 a.u. |
